Measured values pooled from the literature.
Numbered parts are unrelated; each lists some results of a single study.

Set 1 — technique: protein binding microarray; molecule type: double-stranded DNA, one strand shown; sample: in vitro; tested at: not given; relative to: not given; reading: higher = stronger binding
Target: Histone acetyltransferase KAT6A, both winged helices, GST fusion (KAT6A, Homo sapiens, UniProt Q92794, residues 1-181)
Setting: 8-mer, flanks averaged, mean of 2 arrays, mostly near background
Residues (chain): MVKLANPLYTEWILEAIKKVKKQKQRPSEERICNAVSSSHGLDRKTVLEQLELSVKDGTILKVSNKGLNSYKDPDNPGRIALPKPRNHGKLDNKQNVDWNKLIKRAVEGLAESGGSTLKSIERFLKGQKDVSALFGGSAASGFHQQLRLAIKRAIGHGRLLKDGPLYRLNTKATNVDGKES
Oligonucleotide	E-score
CATCACCA	-0.236
GGAGCTAA	-0.16
TCGGGTCA	0.2
CTAAAGAA	-0.0586
CCCGCCGC	0.345
CATGACAC	-0.00827
AACCTAGA	0.0102
CGATTCCG	0.255
GAAGTATC	-0.118
ACGAGAAG	-0.11
CTCCGCCA	0.00498
CTGCTATA	-0.0699
CAAAGTAG	-0.16
AGAATTGC	0.0233
AAGTCCGC	0.268
TGGTCTAA	-0.114
CAAGCAGA	-0.0798
ATTGTTAG	-0.0572
CCGAGGAC	0.052
CACCCCGC	0.248
ACCCGCGC	0.353
CTATACGA	0.00383
AGGAGGTG	-0.187
GTCGCTAA	0.125
TATAGAAA	-0.0207

Set 2 — technique: RNA Bind-n-Seq; molecule type: RNA; sample: in vitro; tested at: not given; relative to: input RNA pool; reading: higher = stronger binding
Target: RING finger protein unkempt homolog, zinc fingers 1-6, GST-SBP tag (UNK, Homo sapiens, UniProt Q9C0B0, residues 30-357)
UniProt Q9C0B0, sequence (30-357, looked up): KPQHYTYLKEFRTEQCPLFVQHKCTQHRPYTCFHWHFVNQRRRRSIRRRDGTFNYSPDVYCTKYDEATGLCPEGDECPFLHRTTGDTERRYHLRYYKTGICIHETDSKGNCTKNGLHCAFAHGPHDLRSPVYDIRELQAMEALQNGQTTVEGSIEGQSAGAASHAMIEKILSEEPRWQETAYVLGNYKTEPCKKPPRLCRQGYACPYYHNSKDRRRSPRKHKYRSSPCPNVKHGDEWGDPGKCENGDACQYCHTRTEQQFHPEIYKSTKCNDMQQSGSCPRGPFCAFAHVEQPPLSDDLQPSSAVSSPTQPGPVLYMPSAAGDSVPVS
Setting: RNA with constant flanks, human and mouse sites, ends assumed
Shared flanks, not repeated: GGGAGUUCUACAGUCCGACGAUC … CAACAGAGGAUUGAGCAUCA
Oligonucleotide	bound/input enrichment
UACCUCCUCAGCGAUGGGACCUGCAAGUGCGGUCUGGAGUGUCCACUUAAUGUACCCAAGGUUUUCAACUUUGACCCUCUGGCCCCGGUGACCCCGGGUGGGGCUGGGGUGGGGCCUGCA	0.14 ratio
UGAAAAUGGCUUCUGCUCCAUUAAAAAGUAAAAAUUGUCCUCCAAAUAUAAAACUCCUUAAUAGAUAUUUUUGAAAUUAAAAUCUUUAAAUUUUAUAAAUCAGCUGUUGCCACUACACAA	92 ratio
CACACUGCUGCUAUGGAUAUGCUGGGAGGACCUGGUAUCGAAAGCCAGUGUAGAAAAGUUGAUAUCAUUGCAGAUGCAGCAUAUUCCAUUUUCCAAAAGCCAAAAAGUUUUACUGGCAAC	0.155 ratio
AUUUGUUGGUGGGUUUGGGGGAACACAUCUCCUCCUGGCAUAUUUGAACACAUUCUCUUCCUCUUCGGCUGAUGUUCUGUCUUUGACCUCGUUCUUCUCCCGAGUUUUCACUGAGAGUCC	0.399 ratio
AGUGACAUUGCUCUUUGGUAAAAAUGCCUGCUUUCCAAUACUUUGAUUGCAUAUUAGACAUUCUUAACAGGGCGGCAGUCUAGUGUUGAAAGUUUUAUUUUUCCAUUUUUCUUUUAAGUA	0.59 ratio
UGGAAUUCAAAUUUGAGUGGACAUCUCCUAAGUGCAUCUGAUGACCAUACUGUUUGUCUGUGGGAUAUAAACGCAGGACCAAAAGAAGGCAAAAUUGUGGAUGCUAAAGCCAUCUUUACU	0.245 ratio
AACAGGAUCAGUUAACUAUUGCAUUUAUAUGUACCGUAGGCUUUGUAUUCAAAAAUUAUCUAUAGCUAAGUACACAAUAAGCAAAAACAAAAAGAAAAGAAAAUUUUUGUAGUAGCGUUU	1.17 ratio
CUGAAGCCCAUGUUGCAGCGGGACUUUAUUACCGCUUUACCAGAGCAAGGCUUAGAUCACAUAGCAGAAAACAUUCUUUCGUACCUGGAUGCCAGGUCUCUGUGUGCAGCAGAGCUGGUA	0.792 ratio
GACAAAAAAGCAGAAAUUCUAAUUAACAAGACACAUAAGCAGCAGUUUAAUAAACUCAUUACUAGCCAGGCUGUGCAUGUUACAACUCAUUCUAAAAAUGCUUCACACAGGGUUCCAAGA	0.483 ratio
AAAUGAAGGUACAUAUACAUGAUCUGAGUAACCAUUUCCUCUGUGGCCAAUCUGUAUGCUUUUAGAAGUUUACAAAACUGCUUUGGUUUUUGUCUGUAACCAUCUCUGUCAUCCCAAUAA	0.389 ratio
CCUCAGAUGGUGUCUGCCAUUGUACGCACCAUGCAGAAUACAAAUGAUGUAGAGACAGCUCGUUGUACUGCUGGGACUCUGCACAACCUUUCUCACCACCGCGAGGGCUUGCUGGCCAUC	0.112 ratio

Set 3 — technique: RNA Bind-n-Seq; molecule type: RNA; sample: in vitro; tested at: 365 nM; relative to: no-protein control; reading: higher = stronger binding
Target: RNA binding protein fox-1 homolog 2, RRM domain, GST-SBP tag (RBFOX2, Homo sapiens, UniProt O43251-10, residues 100-194)
Setting: natural RNA segment, single round, ends assumed
Shared flanks, not repeated: GGGAGUUCUACAGUCCGACGAUC … UGGAAUUCUCGGGUGCCAA
Residues (chain): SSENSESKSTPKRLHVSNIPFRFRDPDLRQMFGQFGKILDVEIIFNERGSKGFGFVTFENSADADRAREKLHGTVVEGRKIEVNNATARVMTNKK
Oligonucleotide	RBNS enrichment (R)
AUCUAGGAACCGCCGCUGCCUGCUGAGGGCCAGGCCCCUCACGCCCUCGCCCCAGGCCCGGGUCCUCCAGCGUUGAACACUUCCUUGCUUUUUUCACAUGUUUUAUGGAA	3.1
UGCAGAUGUGUCUGGACUUGAGCCCAGUGCUUUGGGGCCUUGAGACUCCAGCGACUGCACACCCGCUCUGUGCUGCGGCCAGGGAGGGUGAGAACCAUCGCUCCUUUGCC	0.256
CUUUAAAUAAAUAGCAUCGGACUUUCAUAUUUUUCUUUUUGACGUGGAGAAAACAUUUUCAUGCCUAAAAAUGUCUUUGAGAUAAUGCCAAUUCUGAUGUCCCUUACCUU	0.449
AAGCCAGAUCGAUUUGACUUUGCUUCCAUGCUGUGUGUUCUGAAAGGACAUGGCUCUAAAAUUUCCUGUUGAUUGGCAUGUGUAUCUCAUUUAAAGCAAAAUUAGGUAGA	6.46
GAAAUAGAUAAGUGAAAGCUGAGUGUUUCUUUGAUAGGUUCCCCUGUACUAUAGGAGUGAUAAUUGCAGCUAUUGCAAUAGUAGUAAUUGUUAAAUGGAUACUAAUGAAU	0.428
GAUUAGCUGCCAUGUUUUAUUCUUAUAAGGAAAAGCACAGAGAUCAUUAAAGUAAGUUUUACAAUAAGGAAUGGUUCUGUUUUUUCCUGGCUGAGCUUUGCUGGUGGUCG	0.328
UCGGAGUGUACAUAAAACAGAAAAAAUCUUCAUGUAUUUUUAUUAAAUAUAACAAUGUCUGAGUUUCACCUAAGAUGUUUUUGUGCCAUAUGCUGGAUAUCCAGGUUCUC	0.612
UUCUUUCAGUUUGCUUUUGGUUUCCUGUAUAUUUGCUUACUGUGCUGUUCUAGUGGUUGUAGGGUAAAGACGAACUGGUGAAGCAGUCGUAGCGCCGACCGAAGGUGAUU	0.412
CAGUGUCAAUGUCAUUGUUAACUAUAUUUCAUAUUUGAGGUCUCAUUGUUUUCAAAUAAACAGUGUUUUCCAUGACUGAGAUAUUUAUUUUUGGGAAAGCAACGAGGUAA	0.414
UGGUGGUAGAUGUAUGUAAAUUAGAAGUUUGAAUGGGACAGGAUGAGAGUUCGAGGCUCUUUGUUUGGUAUCUUUUGUGUUAAUGUGUCUUGAAUCUGCCAAUCUGUAUG	3
UCCCUUGUGUCUGGAGUAUUCUGUCAUCUGCAAGCCCUGUUCUUACCUCACCUGUCCACGUUCACCACAGGCCACUUGAGCACGUGGCACCUAUCUGAGCUCUACUCAGU	0.666
UAUUUGAGCAAAUAAUGAUAGGGCAUACUCAGACAUUUUAGCUACCUUUUAUACCUACGAUUUCAUGUCACAUUUACUAAUAGAAUUAAGGGAAAUAGAAGCCCGUUCUU	0.275

Set 4 — technique: aptamer microarray, sandwich; molecule type: DNA with 2'F-ANA; sample: in vitro; tested at: 200 nM; with: Cy3 exosite-II aptamer, 400 nM; reading: higher = stronger binding; oligonucleotide: GGTTGGTGTGGTTGG
Target: Prothrombin, mature alpha-thrombin (F2, Homo sapiens, UniProt P00734)
Setting: whole 15-mer aptamer, many near background
Modification	mean fluorescence intensity
2'F-ANA at 3 4 6 8 10 11 12 15	229 a.u.
2'F-ANA at 1 2 4 6 7 8 10 12 14	49.4 a.u.
2'F-ANA at 5 7 8 10 11 12 15	52.3 a.u.
2'F-ANA at 1 2 3 8 10 13 14 15	50.5 a.u.
2'F-ANA at 1 5 6 7 9 11 12	94.2 a.u.
2'F-ANA at 3 4 6 8 10 12	297 a.u.
2'F-ANA at 1 3 6 15	312 a.u.
2'F-ANA at 2 5 7 11 12 14 15	216 a.u.
2'F-ANA at 2 3 4 5 7 8 9 14	52.6 a.u.
2'F-ANA at 1 2 4 5 8 10 13 14 15	47.4 a.u.
2'F-ANA at 3 4 5 7 8 10 11 14	48.2 a.u.
2'F-ANA at 2 3 4 8 9 12 13 14 15	287 a.u.
2'F-ANA at 1 3 6 7 8 12 14	128 a.u.
2'F-ANA at 1 2 3 4 6 9 11 14 15	55.9 a.u.
2'F-ANA at 6 7 8 10 11 12 14	106 a.u.
2'F-ANA at 1 4 6 7 8 9 10 11 12 13	54.3 a.u.
2'F-ANA at 3 4 5 10 12 13 14 15	58.3 a.u.
2'F-ANA at 2 3 4 5 6 9 10 11 12 13 14	51.9 a.u.
2'F-ANA at 1 3 4 5 8 9 10 14 15	47.8 a.u.
2'F-ANA at 2 3 5 6 7 10 11 12	67.3 a.u.

Repeated from above (set 4):
Modification	mean fluorescence intensity
2'F-ANA at 5 7 8 10 11 12 15	52.3 a.u.
2'F-ANA at 1 2 3 8 10 13 14 15	50.5 a.u.
2'F-ANA at 1 5 6 7 9 11 12	94.2 a.u.
2'F-ANA at 3 4 6 8 10 12	297 a.u.
